# Assay results pooled from the literature.
# Parts stem from different laboratories: compare values within a part only. Substitutions count along the parent as printed.

# Set 1
# Target: PABPC1L2, full length, GST fusion (mouse, UniProt A0ABA7IW68)
# Technique: RNAcompete
# Form: RNA
# Medium: in vitro
# Tested at: 20 nM
# Notes: 7-mer, probes averaged, single round
# Relative to: mean of 7-mers
# Reading: higher = stronger binding
# Construct (chain): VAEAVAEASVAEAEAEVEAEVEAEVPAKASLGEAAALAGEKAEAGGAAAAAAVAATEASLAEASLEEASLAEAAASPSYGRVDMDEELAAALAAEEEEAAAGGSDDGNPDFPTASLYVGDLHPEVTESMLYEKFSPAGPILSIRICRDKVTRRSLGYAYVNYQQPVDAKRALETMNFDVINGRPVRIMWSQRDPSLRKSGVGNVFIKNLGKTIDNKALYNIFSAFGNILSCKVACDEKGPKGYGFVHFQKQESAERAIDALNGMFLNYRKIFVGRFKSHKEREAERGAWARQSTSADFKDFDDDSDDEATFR
Sequence,7-mer Z-score
GGCUAUU,-0.0718
AGAAUAC,-0.113
AGGGUCC,0.00979
UAGCCAC,-0.0681
AUCAAUG,-0.0573
UGGAAGC,0.0261
CCCCGGU,-0.421
GAACCGC,-0.146
GCGCUCU,-0.173

# Set 2
# Target: ABI1, truncated, D143A, DHFR fusion (Arabidopsis thaliana)
# Technique: DHFR PCA, deep sequencing
# Medium: yeast
# Notes: methotrexate growth selection, single substitutions
# Together with: (+)-ABA 58 µM
# Relative to: wild-type fitted maximum
# Reading: higher = stronger binding
# Starting sequence: PYL1, truncated, DHFR fusion (Arabidopsis thaliana); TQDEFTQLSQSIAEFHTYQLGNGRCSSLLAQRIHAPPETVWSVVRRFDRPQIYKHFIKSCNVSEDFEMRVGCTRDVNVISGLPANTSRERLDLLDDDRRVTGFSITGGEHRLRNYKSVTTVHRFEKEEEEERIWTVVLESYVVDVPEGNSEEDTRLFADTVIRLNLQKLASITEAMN
Variant,relative binding score
P83Y,6.58%
V70D,41.1%
C25D,-3.7%
L93I,104%
G148C,58.1%

# Set 3
# Target: CCNB2, cyclin fold, Cln2 fusion (human)
# Technique: yeast growth competition, sequencing
# Medium: yeast
# Notes: weak parent motif
# Relative to: not given
# Reading: higher = stronger binding
# Starting sequence: RBL1 docking peptide (human); GSAKRRLFGEDPP; partner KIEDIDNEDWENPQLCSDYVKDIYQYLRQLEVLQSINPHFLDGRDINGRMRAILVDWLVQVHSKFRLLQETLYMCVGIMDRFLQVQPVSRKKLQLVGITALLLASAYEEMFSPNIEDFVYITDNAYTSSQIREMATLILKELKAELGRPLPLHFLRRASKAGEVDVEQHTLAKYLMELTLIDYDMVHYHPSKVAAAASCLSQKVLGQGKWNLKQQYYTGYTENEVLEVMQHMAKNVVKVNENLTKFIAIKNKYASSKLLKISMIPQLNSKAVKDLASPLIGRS
Variant,normalised enrichment score
GSAYRRLFGEDPP [K4Y],0.00115
GSAKRRLFGEDAP [P12A],0.568
GSSKRRLFGEDPP [A3S],0.143
GSAKRRLFGEDPL [P13L],0.682
GSAKRRLFGEGPP [D11G],0.335
GSAKRRLFGEDGP [P12G],0.0886
GSAKRREFGEDPP [L7E],-0.489

# Other studies, line by line
Substance,target,assay,test system,setting,how to read,measurement,value
"PhoQ, residues 284 288 289 292 302 303 ALSMDL","PhoP, residues 12 14 15 18 19 LHSVW (Escherichia coli, UniProt P23836)","Sort-seq, item: YFP reporter",E. coli,"PhoQ-PhoP variant library, together with: 10 µM Mg2+","relative to: high Mg2+ state, higher = stronger signaling",fold induction,1.05

# Some of these lines once more (set 2):
Variant,relative binding score
C25D,-3.7%
G148C,58.1%
